Measured values gathered from unrelated publications.
Every numbered part comes from another study and shows a few of its results, in no order. Positions count from the first letter of the parent shown.

Sample 1 — technique: RNA Bind-n-Seq; form: RNA; sample: in vitro; tested at: 1 µM; notes: whole 134-nt RNA, ends assumed; added: 150 mM KCl; relative to: input library; direction: higher = stronger binding
Target: Ras GTPase-activating protein-binding protein 1, RRM domain (G3BP1, Homo sapiens, UniProt Q13283)
UniProt Q13283, sequence (whole entry, looked up): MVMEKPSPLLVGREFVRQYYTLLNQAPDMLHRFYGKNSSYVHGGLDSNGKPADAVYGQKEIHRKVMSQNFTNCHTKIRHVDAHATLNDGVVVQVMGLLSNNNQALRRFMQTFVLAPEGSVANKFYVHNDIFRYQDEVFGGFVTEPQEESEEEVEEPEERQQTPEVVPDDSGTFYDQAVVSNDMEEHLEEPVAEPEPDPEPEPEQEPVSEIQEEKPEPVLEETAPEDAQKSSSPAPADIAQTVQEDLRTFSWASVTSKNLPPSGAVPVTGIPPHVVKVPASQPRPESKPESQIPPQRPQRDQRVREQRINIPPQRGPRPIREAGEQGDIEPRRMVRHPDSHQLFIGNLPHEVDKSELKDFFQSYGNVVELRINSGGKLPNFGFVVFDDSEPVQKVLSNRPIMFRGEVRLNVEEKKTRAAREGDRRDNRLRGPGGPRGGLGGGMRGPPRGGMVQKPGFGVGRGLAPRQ
Sequence	log2 enrichment
GGGAGUUCUACAGUCCGACGAUCUUCAAAGCGUUCGAAUGAGGAGACUGAUGACUAUGGGAAGGCGCAGGUAGCCAAAAGCAGCAGCAAGGAAUCCAGGUCAUCCAAGCUCCAUGGAAUUCUCGGGUGUCAAGG	-0.25
GGGAGUUCUACAGUCCGACGAUCAAGUCCUGUGCUACACAUCGUAUGUACCGAAUCGGGUUUUUGGGUUUGGGUUUGGGAAAGUAUUAUGUUACGCCGUUCGGAUCUGCACUUUGGAAUUCUCGGGUGUCAAGG	0.446
GGGAGUUCUACAGUCCGACGAUCUCCUCAAGUCCUGUGCUACACAUCGUAUGUACCGAAUCGGGAGGAGGGAGGAAAGUAUUAUGUUACGCCGUUCGGAUCUGCACUUCCAGCUGGAAUUCUCGGGUGUCAAGG	-0.194
GGGAGUUCUACAGUCCGACGAUCGUCCUGUGCUACACAUCGUAUGUACCGAAUCGGCCCCCCGGGGCCCCCCGGCCCCCCGGAAAGUAUUAUGUUACGCCGUUCGGAUCUGCAUGGAAUUCUCGGGUGUCAAGG	-0.355

Sample 2 — technique: RNA Bind-n-Seq; form: RNA; sample: in vitro; tested at: 365 nM; relative to: no-protein control; direction: higher = stronger binding
Target: RNA binding protein fox-1 homolog 2, RRM domain, GST-SBP tag (RBFOX2, Homo sapiens, UniProt O43251-10, residues 100-194)
Notes: natural RNA segment, single round, ends assumed
Constant ends, left off below: GGGAGUUCUACAGUCCGACGAUC … UGGAAUUCUCGGGUGCCAA
Target sequence (chain): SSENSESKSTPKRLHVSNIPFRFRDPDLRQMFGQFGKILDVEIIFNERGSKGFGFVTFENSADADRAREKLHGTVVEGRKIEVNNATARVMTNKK
Sequence	RBNS enrichment (R)
AAACCCGUCAUGACGCGGCUGCUUCGGAAGCAGACAUCUGGGGACACAGCCUCAGUACCCAGUCUUUUCCCUAGUUCCUGAAACUUUCCUAGGACCUUAAGAGAAUAGUA	0.389
CAGUUCUCAAAUGUCAAUGUAGAUAAGAGUCAUCUAGUAGAGAACUCAUCAGAGUGCGGAUUGCCAAGACCCUUCUCCAGAGAUUAUGGGGUUGGGGGUGGAGGUCUAGA	0.788
AAAUAAAAAGUAUAAACAUCACUGCACUGUGACUGGUGGGAAAAACUGACAGUUUCCUCUUUGCACAUGUUUAACAUUUGGCUGUUAUAAUAUAUGGUCCUCGGUUGGGG	0.599
UGAAAAAUUCCUCUUUGAACCUGGCAGAUGCAGCUAGGCUCUGCAGUGCUGUUUGGAGACUGUGAGAGGGAGUGCGUGUGUUGACACAUGUGGAUCAGGCCCAGGAAGGG	0.395
AGUCAGUGGAAGGCGGGGGGGCCCUGGCCUCUGCACCGGGAUCCCAGUGGGAACCUUCAUGCCUUAUUUAUUUCUAAUGGGUAAAGGGGUUUUCUUACCAAGCAUCCCUG	0.258
AUGGAAGUUGCUUCAGAUAUCUGAUACUGUGAAUGUUUGAACAUAUCCGUGGCCUUCACCUCUCCAGCUACCCUUUUACCUCAUCAGAAGCAGUGGCUCAGCUAAGUGCU	0.765
ACAGUCAAGAUACAUAGUAAAUGGUAUCAUUUGGAAAUCAGCAUCGUGGGCACUGCUGAGGAAUGAUCCUAGUGGUAGGUCAGAAGAAGAUGCUGUGAACACCAGGACUU	0.634

Sample 3 — target: CCNB1, cyclin fold, Cln2 fusion (human); technique: yeast growth competition, sequencing; sample: yeast; notes: weak parent motif; relative to: not given; direction: higher = stronger binding
Starting sequence: GMNC docking peptide (human); KNAKRNLSSEFAN
Change	normalised enrichment score
KNAKRMLSSEFAN [N6M]	0.0666
KNIKRNLSSEFAN [A3I]	0.407
KNCKRNLSSEFAN [A3C]	0.252
KNAQRNLSSEFAN [K4Q]	0.0738

Single results of other studies
Molecule	target	test	test system	setting	how to read	measurement	result
PhoQ, residues 284 288 289 292 302 303 NSMLDC	PhoP, residues 12 14 15 18 19 DLLYY (Escherichia coli, UniProt P23836)	Sort-seq, refers to: YFP reporter	E. coli	PhoQ-PhoP variant library, added: 10 µM Mg2+	relative to: high Mg2+ state, higher = stronger signaling	fold induction	1.03
